{"data": "Experimental data of several laboratories", "note": "A part holds a random share of what one study measured. Positions count from the first letter of the parent shown."}
{"data": "Sample 1", "target": "Histone acetyltransferase KAT6A, winged helix 2, GST fusion (KAT6A, Homo sapiens, UniProt Q92794, residues 85-181)", "technique": "protein binding microarray", "molecule type": "double-stranded DNA, one strand shown", "sample": "in vitro", "tested at": "not given", "setting": "8-mer, flanks averaged, mean of 2 arrays, mostly near background", "relative to": "not given", "direction": "higher = stronger binding", "Target sequence (chain)": "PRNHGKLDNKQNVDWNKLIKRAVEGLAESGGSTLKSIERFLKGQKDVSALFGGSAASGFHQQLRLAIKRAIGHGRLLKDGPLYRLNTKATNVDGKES"}
{"Strand": "ACGCTTGG", "E-score": -0.0357}
{"Strand": "ATATATGC", "E-score": -0.0437}
{"Strand": "GGCACGGA", "E-score": 0.0559}
{"Strand": "ACGGGCAT", "E-score": -0.118}
{"Strand": "AATAAACG", "E-score": 0.00329}
{"Strand": "CTCAACAG", "E-score": -0.0465}
{"Strand": "ACAGTTCA", "E-score": 0.00271}
{"Strand": "ACCCCTTG", "E-score": -0.104}
{"Strand": "GAATTCAC", "E-score": 0.0931}
{"Strand": "CGACCACG", "E-score": -0.0428}
{"Strand": "ATGTGATG", "E-score": -0.174}
{"Strand": "CACGTTAC", "E-score": -0.139}
{"Strand": "CATAGCTA", "E-score": -0.212}
{"Strand": "AGACCTAT", "E-score": 0.0157}
{"Strand": "AGCCGGTC", "E-score": -0.0291}
{"Strand": "CCGATTCG", "E-score": 0.165}
{"Strand": "ATTGCTGA", "E-score": 0.117}
{"Strand": "AGATATCT", "E-score": 0.0664}
{"Strand": "TACGTGAA", "E-score": -0.112}
{"Strand": "GCGGTAGA", "E-score": -0.0967}
{"Strand": "AACACGCG", "E-score": 0.075}
{"Strand": "ATATCCCA", "E-score": 0.165}
{"Strand": "ACTCGCCA", "E-score": 0.0696}
{"Strand": "ACGGGTAG", "E-score": -0.00286}
{"Strand": "GCGGTAAC", "E-score": 0.0407}
{"data": "Sample 2", "target": "CCND3, cyclin fold, Cln2 fusion (human)", "technique": "yeast growth competition, sequencing", "sample": "yeast", "setting": "weak parent motif", "relative to": "not given", "direction": "higher = stronger binding", "starting sequence": "KIF20B docking peptide (human); KRAKRKLYTSEIS"}
{"Substitution": "KRAKRALYTSEIS [K6A]", "normalised enrichment score": -0.0422}
{"Substitution": "KRAKRKLYTSAIS [E11A]", "normalised enrichment score": 0.197}
{"Substitution": "KRAKAKLYTSEIS [R5A]", "normalised enrichment score": -0.0609}
{"Substitution": "KRAKRKAYTSEIS [L7A]", "normalised enrichment score": 0.484}
{"Substitution": "KRAKRKLYASEIS [T9A]", "normalised enrichment score": 0.19}
{"Substitution": "KRAKRKLYTSEIA [S13A]", "normalised enrichment score": 0.436}
{"data": "Sample 3", "target": "Transcriptional repressor CTCF (CTCF, Homo sapiens, UniProt P49711, residues 1-727, full length assumed)", "technique": "protein-binding microarray", "molecule type": "double-stranded DNA, one strand shown", "sample": "in vitro", "tested at": "not given", "setting": "k-mer, scored over probes, only values ≥0.25", "direction": "higher = stronger binding", "UniProt P49711, sequence (whole entry, looked up)": "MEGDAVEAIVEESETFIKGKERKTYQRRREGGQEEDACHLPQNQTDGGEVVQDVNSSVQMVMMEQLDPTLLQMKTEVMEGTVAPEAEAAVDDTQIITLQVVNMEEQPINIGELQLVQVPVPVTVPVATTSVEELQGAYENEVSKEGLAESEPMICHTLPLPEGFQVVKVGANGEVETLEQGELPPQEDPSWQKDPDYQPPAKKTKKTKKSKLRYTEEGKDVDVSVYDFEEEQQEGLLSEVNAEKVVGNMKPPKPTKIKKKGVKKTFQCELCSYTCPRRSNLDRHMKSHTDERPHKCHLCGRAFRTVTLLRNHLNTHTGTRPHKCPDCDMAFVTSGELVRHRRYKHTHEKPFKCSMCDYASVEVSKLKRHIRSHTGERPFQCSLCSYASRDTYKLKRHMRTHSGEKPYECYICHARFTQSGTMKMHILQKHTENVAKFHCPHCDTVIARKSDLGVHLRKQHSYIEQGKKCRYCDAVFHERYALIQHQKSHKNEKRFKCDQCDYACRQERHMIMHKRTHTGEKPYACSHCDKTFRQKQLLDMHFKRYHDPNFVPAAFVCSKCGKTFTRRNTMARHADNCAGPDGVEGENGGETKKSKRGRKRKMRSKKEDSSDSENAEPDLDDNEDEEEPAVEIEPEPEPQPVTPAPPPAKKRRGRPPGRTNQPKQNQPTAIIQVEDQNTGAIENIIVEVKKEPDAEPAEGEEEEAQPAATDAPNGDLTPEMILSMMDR"}
{"Strand": "ATAGTTGC", "E-score": 0.287}
{"Strand": "GTAAATAC", "E-score": 0.275}
{"Strand": "ATAAAATG", "E-score": 0.334}
{"Strand": "ACATTTAA", "E-score": 0.26}
{"Strand": "ACAAAAAA", "E-score": 0.302}
{"Strand": "GTGGTTAA", "E-score": 0.288}
{"Strand": "ATAGTAAT", "E-score": 0.326}
{"Strand": "AGTGTAAT", "E-score": 0.296}
{"Strand": "GTATTGTA", "E-score": 0.28}
{"Strand": "TATTATAA", "E-score": 0.289}
{"Strand": "ATCTGCGC", "E-score": 0.296}
{"Strand": "AATATCAT", "E-score": 0.309}
{"Strand": "ATAACAGC", "E-score": 0.263}
{"Strand": "GTAAACAA", "E-score": 0.271}
{"data": "Sample 4", "target": "CEBPB, bZIP domain (human)", "technique": "DHFR protein complementation", "sample": "yeast", "setting": "single substitutions, most at no-binding floor", "relative to": "wild-type JUN-FOS pair", "direction": "higher = stronger binding", "starting sequence": "JUN, bZIP domain (human); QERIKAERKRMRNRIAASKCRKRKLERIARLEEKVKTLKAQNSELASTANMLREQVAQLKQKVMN; partner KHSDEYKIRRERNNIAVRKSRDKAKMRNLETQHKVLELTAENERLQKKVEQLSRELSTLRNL"}
{"Substitution": "E33S", "binding fitness": "-1.4 natural log"}
{"Substitution": "Q41E", "binding fitness": "-1.44 natural log"}
{"Substitution": "K34V", "binding fitness": "-1.34 natural log"}
{"Substitution": "S43Q", "binding fitness": "-1.08 natural log"}
{"Substitution": "K34A", "binding fitness": "-1.34 natural log"}
{"Substitution": "E32M", "binding fitness": "-1.4 natural log"}
{"Substitution": "K39G", "binding fitness": "-1.45 natural log"}
{"Substitution": "S43F", "binding fitness": "-1.12 natural log"}
{"Substitution": "E33H", "binding fitness": "-1.43 natural log"}
{"Substitution": "Q41L", "binding fitness": "-1.37 natural log"}
{"Substitution": "R53T", "binding fitness": "-1.05 natural log"}
{"Substitution": "L45C", "binding fitness": "-1.55 natural log"}
{"Substitution": "L38H", "binding fitness": "-1.47 natural log"}
{"Substitution": "S47P", "binding fitness": "-1.5 natural log"}
{"Substitution": "A49P", "binding fitness": "-1.52 natural log"}
{"Substitution": "E32Y", "binding fitness": "-1.53 natural log"}
{"Substitution": "A29C", "binding fitness": "-1.39 natural log"}
{"Substitution": "Q41K", "binding fitness": "-1.38 natural log"}
{"Substitution": "K39F", "binding fitness": "-1.47 natural log"}
{"Substitution": "V35T", "binding fitness": "-1.43 natural log"}
{"Substitution": "K39L", "binding fitness": "-1.36 natural log"}
{"data": "Sample 5", "target": "Ras GTPase-activating protein-binding protein 1, RRM domain (G3BP1, Homo sapiens, UniProt Q13283)", "technique": "RNA Bind-n-Seq", "molecule type": "RNA", "sample": "in vitro", "tested at": "1 µM", "setting": "whole 134-nt RNA, ends assumed", "together with": "150 mM KCl", "relative to": "input library", "direction": "higher = stronger binding", "constant ends, left off below": "GGGAGUUCUACAGUCCGACGAUC … UGGAAUUCUCGGGUGUCAAGG", "UniProt Q13283, sequence (whole entry, looked up)": "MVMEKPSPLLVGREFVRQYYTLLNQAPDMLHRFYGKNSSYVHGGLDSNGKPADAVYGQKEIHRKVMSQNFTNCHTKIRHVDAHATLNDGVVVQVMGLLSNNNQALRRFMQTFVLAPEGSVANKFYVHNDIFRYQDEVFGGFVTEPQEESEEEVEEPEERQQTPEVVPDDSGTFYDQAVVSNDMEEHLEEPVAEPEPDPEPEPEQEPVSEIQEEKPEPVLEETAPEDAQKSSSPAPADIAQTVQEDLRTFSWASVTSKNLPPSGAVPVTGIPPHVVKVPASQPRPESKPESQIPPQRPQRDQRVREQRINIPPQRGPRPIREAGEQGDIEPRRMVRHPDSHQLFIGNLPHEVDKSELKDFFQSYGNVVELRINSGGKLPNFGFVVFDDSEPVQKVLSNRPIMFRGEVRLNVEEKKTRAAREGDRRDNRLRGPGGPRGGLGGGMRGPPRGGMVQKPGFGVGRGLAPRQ"}
{"Strand": "UAACUUUAGAGGAGGAUCUGAUGGAUAUGGCAGUGGACGUGGAUUUGGGGAUGGCUAUAAUGGGUAUGGAGGAGGACCUGGAGCUGGCAA", "log2 enrichment": -0.316}
{"Strand": "CUGUGCUACACAUCGUAUGUACCGAAUCGGGGUUUUUUUGGGUUUUUUUGGGUUUUUUUGGAAAGUAUUAUGUUACGCCGUUCGGAUCUG", "log2 enrichment": -0.167}
{"Strand": "AUAUGAGUAAAAUCUGUCCCUUUUUCCCCCUUUGAAUGAGGUCUUCCAUGUUUGAGGGAAAGUCUUGCACUAUUGCAUAUAUUUUGGGGA", "log2 enrichment": -0.231}
{"Strand": "UGUGCUACACAUCGUAUGUACCGAAUCGGGGAAAAAAAGGGGUUUUUUUGGGGAAAAAGGGGAAAGUAUUAUGUUACGCCGUUCGGAUCU", "log2 enrichment": 1.15}
{"Strand": "ACCAUGCAGGUGGAAAUCUUUGGGAAGUGGGGCAAGGGGGGGAUAGGGAGGGGGGUAACACUUUGGGAACAGGUGGUCCCAGGUCGUUUC", "log2 enrichment": -0.295}
{"Strand": "UAACUUUAGAGGAGGAUCUGAUGGAUAUGGCAGUGGACGUGGAUUUGGGGAUGGCUAUUAUGGGUAUGGAGGAGGACCUGGAGGUGGCAA", "log2 enrichment": -0.444}
{"Strand": "UUUCUCCAAGGACAUCAAGGUGCCCAAGAGCCGCUACCUGGGCUACAUCAAGGACUACGAGGGAGCGACGCUGAUGGAGUGUGAGCUGAA", "log2 enrichment": -0.307}
{"Strand": "UCAAGUCCUGUGCUACACAUCGUAUGUACCGAAUCGGUUUUUUUGGAGGAAAGGAAAGUAUUAUGUUACGCCGUUCGGAUCUGCACUUCC", "log2 enrichment": -0.129}
{"Strand": "UCCUGUGCUACACAUCGUAUGUACCGAAUCAAAUUUUUUUAAAUUUUUAAACCCCCAAAAAAGUAUUAUGUUACGCCGUUCGGAUCUGCA", "log2 enrichment": -0.974}
{"Strand": "AAGUCCUGUGCUACACAUCGUAUGUACCGAAUCGGGGUUUGGUUUGGGGUUUGGGGAAAGUAUUAUGUUACGCCGUUCGGAUCUGCACUU", "log2 enrichment": -0.0411}
{"data": "Sample 6", "target": "Sal-like protein 4, full length isoform A (SALL4, Homo sapiens, UniProt Q9UJQ4, residues 1-1053)", "technique": "universal PBM", "molecule type": "double-stranded DNA, one strand shown", "sample": "in vitro", "tested at": "600 nM", "setting": "8-mer, flanks averaged, mean of replicates", "direction": "higher = stronger binding", "UniProt Q9UJQ4, sequence (whole entry, looked up)": "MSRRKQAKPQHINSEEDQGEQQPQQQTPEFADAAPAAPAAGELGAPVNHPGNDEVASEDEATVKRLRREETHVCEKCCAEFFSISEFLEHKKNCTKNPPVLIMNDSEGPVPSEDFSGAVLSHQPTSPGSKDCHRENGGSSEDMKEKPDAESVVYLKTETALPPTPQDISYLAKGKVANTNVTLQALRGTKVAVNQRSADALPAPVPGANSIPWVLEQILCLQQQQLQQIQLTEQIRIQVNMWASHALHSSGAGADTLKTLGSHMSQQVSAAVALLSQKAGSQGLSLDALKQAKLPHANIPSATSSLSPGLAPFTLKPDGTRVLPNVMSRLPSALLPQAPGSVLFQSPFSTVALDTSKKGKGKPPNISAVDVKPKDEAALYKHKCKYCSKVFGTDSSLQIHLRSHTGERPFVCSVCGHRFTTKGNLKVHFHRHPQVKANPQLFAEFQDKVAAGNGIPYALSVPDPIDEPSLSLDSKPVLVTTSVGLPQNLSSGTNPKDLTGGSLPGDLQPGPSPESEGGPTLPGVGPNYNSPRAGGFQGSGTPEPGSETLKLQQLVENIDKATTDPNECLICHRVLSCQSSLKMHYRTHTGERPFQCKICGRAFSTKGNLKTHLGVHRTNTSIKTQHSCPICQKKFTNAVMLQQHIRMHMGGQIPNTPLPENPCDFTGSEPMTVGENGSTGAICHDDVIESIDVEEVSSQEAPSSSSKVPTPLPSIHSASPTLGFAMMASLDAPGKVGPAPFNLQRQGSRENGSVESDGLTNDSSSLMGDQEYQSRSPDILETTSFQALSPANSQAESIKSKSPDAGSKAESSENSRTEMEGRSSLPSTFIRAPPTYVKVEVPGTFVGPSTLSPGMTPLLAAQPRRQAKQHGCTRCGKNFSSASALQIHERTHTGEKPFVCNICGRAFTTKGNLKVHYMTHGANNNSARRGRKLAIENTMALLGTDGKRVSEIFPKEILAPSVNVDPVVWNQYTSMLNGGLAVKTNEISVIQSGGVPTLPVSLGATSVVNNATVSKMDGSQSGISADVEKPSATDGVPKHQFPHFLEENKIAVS"}
{"Strand": "GGATGATA", "E-score": 0.185}
{"Strand": "CTCCTGCC", "E-score": -0.131}
{"Strand": "CCGTTGCG", "E-score": -0.189}
{"Strand": "CCCCAGCC", "E-score": -0.283}
{"Strand": "CCGTAAAG", "E-score": -0.0714}
{"Strand": "ACAAGGCA", "E-score": -0.0181}
{"Strand": "AGACCTGG", "E-score": -0.271}
{"Strand": "GTCTGACA", "E-score": -0.0426}
{"Strand": "CGCAAGAG", "E-score": -0.114}
{"Strand": "GGCGTTAA", "E-score": -0.105}
{"Strand": "CATCTCCC", "E-score": -0.156}
{"Strand": "ATTACCTG", "E-score": 0.19}
{"Strand": "AAGGACGA", "E-score": -0.0758}
{"Strand": "CTTTAGCC", "E-score": 0.00481}
{"Strand": "GACACGCC", "E-score": -0.381}
{"Strand": "AAATGAGC", "E-score": 0.144}
{"Strand": "ATGATCGC", "E-score": 0.0881}
{"Strand": "CGGGGTAA", "E-score": 0.0117}
{"Strand": "CCATGCTC", "E-score": -0.215}
{"Strand": "ACTTGATA", "E-score": 0.248}
{"Strand": "GACCGCAA", "E-score": -0.109}
{"Strand": "GCCATAAA", "E-score": 0.195}
{"Strand": "GGGCACAA", "E-score": -0.0726}
{"Strand": "GAGAGAGC", "E-score": -0.159}
{"Strand": "GCGCGAGC", "E-score": -0.284}
{"note": "Repeated from above (sample 3):"}
{"Strand": "GTATTGTA", "E-score": 0.28}
{"Strand": "GTGGTTAA", "E-score": 0.288}
{"Strand": "GTAAACAA", "E-score": 0.271}
{"Strand": "TATTATAA", "E-score": 0.289}
{"Strand": "ATAACAGC", "E-score": 0.263}
{"Strand": "ACATTTAA", "E-score": 0.26}
{"Strand": "GTAAATAC", "E-score": 0.275}
{"Strand": "ATAGTTGC", "E-score": 0.287}
{"Strand": "ACAAAAAA", "E-score": 0.302}
{"Strand": "AGTGTAAT", "E-score": 0.296}
{"Strand": "AATATCAT", "E-score": 0.309}
{"Strand": "ATAAAATG", "E-score": 0.334}
{"Strand": "ATAGTAAT", "E-score": 0.326}
